Results from different studies.
Lines come from different studies, so protocols differ. “And” joins repeats or separate records; there may be more than shown. ± gives the spread as reported.

Cn1c(=O)oc2ccc(-c3ccc(C[C@@H](C#N)NC(=O)[C@@H]4CNCCCO4)cc3)cc21
CL/F (human, normal renal function, plasma; oral, 25 mg single dose, mean): 7.43 L/h

[H]/N=C(/N)c1ccc(NCc2nc3cc(C(=O)N(CCC(=O)O)c4ccccn4)ccc3n2C)cc1
CL/F (healthy human subjects, plasma; oral, 150 mg, dabigatran etexilate, arithmetic mean, with: fruquintinib 5 mg): 193 L/h

N#CN1C[C@H](n2nc(-c3ccc(Oc4ccc(Cl)cn4)cc3)c(C(N)=O)c2N)CCC12CC2
CL/F (human fasted; oral, 600 mg): 31.4 ± 14.1 L/h

C#Cc1cccc(Nc2ncnc3cc(OCCOC)c(OCCOC)cc23)c1
CL/F (human; oral, 50 mg, day 1): 8.59 ± 4.52 L/h

C=CC(=O)N1C[C@H](Nc2ncnc3[nH]ccc23)CC[C@@H]1C
CL/F (human; oral, 50 mg single dose, alone without rifampicin): 111 L/h

C[C@H](Oc1ccc(Br)cc1-c1ccon1)C(=O)O
CL/F (healthy male humans, plasma; oral, 200 mg once daily, day 10): 4.99 L/h

CC1(COc2ccc3c(c2)ncn3-c2ccc3cccc(N4CCC(N)CC4)c3n2)COC1
CL/F (human patients, recurrent/progressive HGG or DIPG, serum; oral, 100 mg/m^2, day 28, median): 15 L/h/m²

C[C@@H]1CCO[C@H]2Cn3cc(C(=O)NCc4ccc(F)cc4F)c(=O)c(O)c3C(=O)N12
CL/F (human, haemodialysis patients; oral, steady state, fixed-dose combination): 0.7 L/h

C[C@H]1Oc2cc(cnc2N)-c2c(nn(C)c2C#N)CN(C)C(=O)c2ccc(F)cc21
CL/F (human patients, plasma; oral, cycle 2 day 1, median, with: avelumab): 16 L/h

COC(=O)N[C@H](C(=O)N1CCC[C@H]1c1nc(-c2ccc(-c3ccc(-c4c[nH]c([C@@H]5CCCN5C(=O)[C@@H](NC(=O)OC)C(C)C)n4)cc3)cc2)c[nH]1)C(C)C
CL/F (population PK base model without covariates; human): 4.87 L/h

CCOc1cc(CC(=O)N[C@@H](CC(C)C)c2ccccc2N2CCCCC2)ccc1C(=O)O
CL/F (human; oral, substrate with omaveloxolone, with: omaveloxolone once daily): 51.8 L/h

COc1cc(N2CCC3(CCN(C)CC3)CC2)ccc1Nc1ncc(Cl)c(Nc2ccccc2P(C)(C)=O)n1
CL/F (population PK base model; human): 18.7 L/h

CCOc1cc([C@@H](CS(C)(=O)=O)N2C(=O)c3cccc(NC(C)=O)c3C2=O)ccc1OC
CL/F (healthy human; oral, 30 mg): 12.1 L/h

COC(=O)N[C@@H](C)CNc1nccc(-c2cn(C(C)C)nc2-c2cc(Cl)cc(NS(C)(=O)=O)c2F)n1
CL/F (human, plasma; 50 mg, single dose, arithmetic mean, with: diltiazem 240 mg once daily): 16 L/h

Cn1nnc2c(C(N)=O)ncn2c1=O
CL/F (human patients, plasma; oral, 55 mg/m2, day 5, dose level DL6, median, with: talazoparib 600 µg/m2): 4.3 L/h/m2

CC(C)c1nc(N(C)S(C)(=O)=O)nc(-c2ccc(F)cc2)c1/C=C/[C@@H](O)C[C@@H](O)CC(=O)O
CL/F (human, plasma; 20 mg, day 2, geometric mean, alone): 412 L/h

C=CC(=O)NC1CCN(c2ncc3ncnc(Nc4ccc(Oc5ccc6c(c5)ncn6C)c(C)c4)c3n2)CC1
CL/F (human, plasma; oral, 30 mg single dose, fasted, geometric mean): 9.36 L/h

CN(C)CCC[C@@]1(c2ccc(F)cc2)OCc2cc(C#N)ccc21
CL/F (human; oral): 11.5 L/h

C[C@@H](N)c1cc(Cl)ccc1Cn1c(=S)[nH]c(=O)c2[nH]ccc21
CL/F (human, normal renal function, plasma; oral, 2.5 mg, geometric mean, single dose): 25.6 L/h

CC(C)c1nc(N(C)S(C)(=O)=O)nc(-c2ccc(F)cc2)c1/C=C/[C@@H](O)C[C@@H](O)CC(=O)O
CL/F (human, plasma; 10 mg, alone, geometric mean): 272 L/h

CN1C(=O)[C@@H](NC(=O)c2nnc(Cc3ccccc3)[nH]2)COc2cccnc21
CL/F (healthy human, fasted, plasma; oral, 10 mg single dose, geometric mean): 5.55 L/h

O=C(O)CCC(=O)O.[2H]C([2H])([2H])Oc1cc(C)c2[nH]ccc2c1CN1CC[C@@H](C2CC2)C[C@H]1c1ccc(C(=O)O)cc1
CL/F (LC-MS/MS, mean; human, plasma; 100 mg, single dose, fasting): 1.81 L/h

COc1cc2ncnc(Nc3ccc(F)c(Cl)c3)c2cc1NC(=O)/C=C/CN1CCCCC1
CL/F (human, plasma; oral, 30 mg single dose): 70.2 L/h

CNC(=O)n1ccc2cc(Oc3ccnc(NC(=O)c4ccc(C5CCN(CCO)CC5)cc4)c3)c(OCCOC)cc21
CL/F (healthy human; oral, 35 mg, fasted, geometric mean): 273 L/h

CCN1CCN(Cc2ccc(Nc3ncc(F)c(-c4cc(F)c5nc6n(c5c4)[C@H](C)CCC6)n3)nc2)CC1
CL/F (human, Phase Ib patients, plasma; 400 mg, multiple doses, mean, with: fulvestrant): 53.7 L/h

CC(C)c1nc(N(C)S(C)(=O)=O)nc(-c2ccc(F)cc2)c1/C=C/[C@@H](O)C[C@@H](O)CC(=O)O
CL/F (human; oral, substrate with omaveloxolone, with: omaveloxolone once daily): 414 L/h

CCN1CCN(Cc2ccc(Nc3ncc(F)c(-c4cc(F)c5nc(C)n(C(C)C)c5c4)n3)nc2)CC1
CL/F (fasted healthy human subjects; oral, 150 mg, 3 × 50 mg tablet): 48.1 L/h

CCN1[C@@H](C(=O)NC23CCC(C(=O)O)(CC2)CC3)[C@H](c2cccc(Cl)c2F)[C@]2(C(=O)Nc3cc(Cl)ccc32)C12CCCCC2
CL/F (human; oral, single dose, mean across doses): 4.99 to 10 L/h

Cc1ccc(C)c(OCCCC(C)(C)C(=O)O)c1
CL/F (human; oral, dose not given, before lopinavir/ritonavir, geometric mean): 5.8 L/h

Cn1cc(-c2cn3nccc3c(-c3cnn([C@]4(CC#N)C[C@@H](C#N)C4)c3)n2)cn1
CL/F (healthy human; 400 mg once daily): 55.6 L/h

C[C@@H](Oc1ccc(S(C)(=O)=O)cc1C(=O)N1C[C@@H]2C[C@]2(c2cc(C(F)(F)F)on2)C1)C(F)(F)F
CL/F (elderly humans, plasma; 50 mg once daily, single dose, geometric mean): 6.06 L/h

C[C@@H](Cn1ccc(-c2ccc(C#N)c(Cl)c2)n1)NC(=O)c1cc([C@@H](C)O)[nH]n1
CL/F (human, fasted, plasma; oral solution, 300 mg 14C-darolutamide, geometric mean): 21.2 L/h

C[C@@H](Oc1cc(-c2cnn(C3CCNCC3)c2)cnc1N)c1c(Cl)ccc(F)c1Cl
CL/F (human patients, plasma; oral, cycle 2 day 1, mean, with: avelumab): 121 L/h

CC1(C)CC[C@]2(NC(=O)C(C)(F)F)CC[C@]3(C)[C@H](C(=O)C=C4[C@@]5(C)C=C(C#N)C(=O)C(C)(C)[C@@H]5CC[C@]43C)[C@@H]2C1
CL/F (human; geometric mean, with: itraconazole once daily): 20.6 L/h

Cc1ncnc2c1ccn2[C@@H]1C[C@H](Oc2cc(C(F)F)c(F)c3c2CNCC3)[C@@H](O)[C@H]1O
CL/F (human; oral, 2 mg twice daily): 6.55 L/h and 13.5 L/h

C=C[C@@H]1C[C@]1(NC(=O)[C@@H]1C[C@@H](Oc2ncc(OC)c3ccc(Cl)cc23)CN1C(=O)[C@@H](NC(=O)OC(C)(C)C)C(C)(C)C)C(=O)NS(=O)(=O)C1CC1
CL/F (population PK full model; human): 61.6 L/h

Cc1cc(/C=C/C#N)cc(C)c1Nc1ccnc(Nc2ccc(C#N)cc2)n1
CL/F (human, normal renal function; oral, steady state, fixed-dose combination): 14.9 L/h

CCCOc1ccc(NC(=O)CN2CCN(C)CC2)cc1-c1nc(CC)c(CC)c(=O)[nH]1
CL/F (human, fasting, plasma; oral, 10 mg, with: placebo): 17.9 ± 2.8 L/h

CC#CC(=O)N1CC[C@@H](n2cc(-c3ccc(Oc4c(F)cccc4F)cc3)c3c(N)n[nH]c(=O)c32)C1
CL/F (human patients; 100 to 300 mg, monotherapy): 55.4 L/h

Cn1cncc1[C@@](N)(c1ccc(Cl)cc1)c1ccc2c(c1)c(-c1cccc(Cl)c1)cc(=O)n2C
CL/F (human, female, plasma; oral, across dose levels): 632 mL/min/m²

NC(=S)NN=Cc1ncccc1N
CL/F (human, plasma; oral, single dose): 105 L/h

C#C[C@]1(CO)O[C@@H](n2cnc3c(N)nc(F)nc32)C[C@@H]1O
CL/F (human, plasma; oral, 30 mg, single dose, geometric mean): 26.7 L/h

CCn1cc(C(=O)N2CCOCC2)c(=O)c2cc(NC3Cc4ccccc4C3)cnc21
CL/F (human, plasma; oral, 900 mg BID, day 7, fed, tablet, female): 17.7 L/h

For quick reference, copied from above:
Cc1cc(/C=C/C#N)cc(C)c1Nc1ccnc(Nc2ccc(C#N)cc2)n1
CL/F (human, normal renal function; oral, steady state, fixed-dose combination): 14.9 L/h

CCCOc1ccc(NC(=O)CN2CCN(C)CC2)cc1-c1nc(CC)c(CC)c(=O)[nH]1
CL/F (human, fasting, plasma; oral, 10 mg, with: placebo): 17.9 ± 2.8 L/h

CC#CC(=O)N1CC[C@@H](n2cc(-c3ccc(Oc4c(F)cccc4F)cc3)c3c(N)n[nH]c(=O)c32)C1
CL/F (human patients; 100 to 300 mg, monotherapy): 55.4 L/h

Cn1cncc1[C@@](N)(c1ccc(Cl)cc1)c1ccc2c(c1)c(-c1cccc(Cl)c1)cc(=O)n2C
CL/F (human, female, plasma; oral, across dose levels): 632 mL/min/m²

NC(=S)NN=Cc1ncccc1N
CL/F (human, plasma; oral, single dose): 105 L/h
